Experimental data of several laboratories.
Each numbered part is a random draw from the data of one study; scales do not carry over between parts. Changes are numbered by the printed parent chain.

Block 1
Target: CREM, bZIP domain (human)
Technique: DHFR protein complementation
Matrix: yeast
Notes: single substitutions, most at no-binding floor
Baseline: wild-type JUN-FOS pair
Direction: higher = stronger binding
Starting sequence: JUN, bZIP domain (human); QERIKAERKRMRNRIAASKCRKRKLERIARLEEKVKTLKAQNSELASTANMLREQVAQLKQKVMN; partner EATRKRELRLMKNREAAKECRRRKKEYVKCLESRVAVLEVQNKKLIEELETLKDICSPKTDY
Substitution | binding fitness [natural log]
E33H | -1.54
A29I | -1.33
R30T | -1.39
K36T | -1.45
A57Q | -1.44
A40S | -1.55
L52V | -1.53
L31K | -1.52

Block 2
Substitution: Q7F
Target: ABI1, truncated, D143A, DHFR fusion (Arabidopsis thaliana)
Technique: DHFR PCA, deep sequencing
Matrix: yeast
Notes: methotrexate growth selection, single substitutions
Baseline: wild-type fitted maximum
Direction: higher = stronger binding
Starting sequence: PYL1, truncated, DHFR fusion (Arabidopsis thaliana); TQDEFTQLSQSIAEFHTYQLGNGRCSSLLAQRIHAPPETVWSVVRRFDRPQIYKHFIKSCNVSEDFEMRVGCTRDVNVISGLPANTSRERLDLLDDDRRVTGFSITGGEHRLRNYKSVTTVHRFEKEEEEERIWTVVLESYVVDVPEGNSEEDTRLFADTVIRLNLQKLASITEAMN
setting | relative binding score
added: (+)-ABA 4.8 µM | 69.7%
added: (+)-ABA 0.0091 µM | 25.7%
added: (+)-ABA 0.11 µM | 30.9%
added: (+)-ABA 200 µM | 95.2%
added: (+)-ABA 58 µM | 82.2%
added: (+)-ABA 17 µM | 84.5%

Block 3
Target: TAR DNA-binding protein 43, full length, His tag (TARDBP, Homo sapiens, UniProt Q13148, residues 1-414)
Technique: RNA Bind-n-Seq
Molecule type: RNA
Matrix: in vitro
Concentration: 20 nM
Notes: 6-mer, flanks averaged, single round
Added: 150 mM LiCl
Baseline: input library
Direction: higher = stronger binding
Sequence | 6-mer enrichment (R)
AAGAGG | 1.04
GACCUC | 0.848
GAGAUC | 0.898
GUUACC | 0.942
GUAGUC | 0.935
GACCAC | 0.862
CGAUCA | 0.799
AUCACG | 0.814

Mixed results
Starting sequence: PafA, mature enzyme, eGFP fusion (Elizabethkingia meningoseptica, UniProt Q9KJX5); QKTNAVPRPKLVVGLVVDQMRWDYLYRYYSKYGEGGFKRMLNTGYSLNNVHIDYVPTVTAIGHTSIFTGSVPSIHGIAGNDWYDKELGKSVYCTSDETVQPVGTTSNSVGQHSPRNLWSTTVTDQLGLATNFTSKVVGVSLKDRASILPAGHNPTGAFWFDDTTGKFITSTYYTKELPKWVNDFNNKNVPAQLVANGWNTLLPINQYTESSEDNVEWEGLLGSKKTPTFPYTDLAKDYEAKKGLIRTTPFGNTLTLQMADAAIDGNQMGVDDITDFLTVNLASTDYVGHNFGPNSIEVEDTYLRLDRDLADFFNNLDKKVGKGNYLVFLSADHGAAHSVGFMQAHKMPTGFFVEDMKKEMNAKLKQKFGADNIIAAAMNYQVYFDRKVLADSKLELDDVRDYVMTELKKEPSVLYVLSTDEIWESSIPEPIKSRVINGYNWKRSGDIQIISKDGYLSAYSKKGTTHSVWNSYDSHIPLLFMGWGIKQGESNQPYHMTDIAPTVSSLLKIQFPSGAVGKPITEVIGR
Substitution | target | assay | system | setting | how to read | endpoint | value
P101V | vanadate, free oxyanion | microfluidic competitive inhibition | in vitro, cell-free expressed | not given, derived from inhibition constants, unchanged parent 676 nM | lower = stronger binding | oxyanion analog dissociation constant | 2.44 µM

Some of these lines once more (block 3):
Sequence | 6-mer enrichment (R)
GACCUC | 0.848
GAGAUC | 0.898
